Experimental data of several laboratories.
Each numbered part is a random draw from the data of one study; scales do not carry over between parts.

Set 1 — technique: competition protein-binding microarray; form: double-stranded DNA, one strand shown; matrix: in vitro; tested at: 2 µM; together with: Cbf1 competitor, 0.05 µM; direction: higher = stronger binding; endpoint: fluorescence intensity
Target: Phosphate system positive regulatory protein PHO4, full length, GST-tagged (PHO4, Saccharomyces cerevisiae, UniProt P07270, residues 1-312)
Notes: whole 60-bp probe, lowest competitor level
Construct (chain): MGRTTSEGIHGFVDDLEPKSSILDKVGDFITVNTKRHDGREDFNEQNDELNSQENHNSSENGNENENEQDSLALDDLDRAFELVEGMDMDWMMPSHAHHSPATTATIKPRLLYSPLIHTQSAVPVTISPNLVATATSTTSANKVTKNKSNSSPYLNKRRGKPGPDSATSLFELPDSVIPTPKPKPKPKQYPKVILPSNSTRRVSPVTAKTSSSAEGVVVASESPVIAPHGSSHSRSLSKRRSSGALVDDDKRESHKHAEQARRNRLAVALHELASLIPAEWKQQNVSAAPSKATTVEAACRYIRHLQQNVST
Sequence = CACCGAATTTCCTGGCACGATCGTTGTTACCAGCTGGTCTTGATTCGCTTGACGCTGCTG; value = 8340 a.u.
Sequence = CTTTCCCGATCTTGGTGAGTGGGTGTAGCACATTTGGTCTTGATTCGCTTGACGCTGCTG; value = 4940 a.u.
Sequence = AAAGCGGTAATTTGTCACCAGACTTCACATATCTATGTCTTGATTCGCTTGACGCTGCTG; value = 3610 a.u.
Sequence = CTTCTGTAAATTTCACACGTGTTTTGACGCGCCCCGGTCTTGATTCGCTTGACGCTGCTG; value = 18400 a.u.
Sequence = GTCATCGACCTTGAGCATGTGGTAGACTACATAATGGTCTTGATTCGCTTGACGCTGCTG; value = 13100 a.u.
Sequence = CGATGTATTTACCATCACCTGGTGATACAGCGACGGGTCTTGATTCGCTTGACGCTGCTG; value = 4550 a.u.
Sequence = TGATATTCTGGCCGTCACGTCTTCTTTGTTTTCTTTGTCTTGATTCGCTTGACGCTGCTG; value = 5320 a.u.
Sequence = TTGAGCTTATAAAAGCACGTGACGGCAATTCACCCCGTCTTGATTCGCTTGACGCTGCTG; value = 14800 a.u.
Sequence = CCATTTCTTCTTCGTCACACGTTAAGCTTGCCAGGAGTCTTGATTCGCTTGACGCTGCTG; value = 6860 a.u.
Sequence = ATTACCCGTCTCCGTCACGTGAAGTAAAAATTTCCAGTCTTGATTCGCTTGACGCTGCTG; value = 12300 a.u.
Sequence = GTAGCTACATTGCCGTGCGTGGCAACAACCTAATTAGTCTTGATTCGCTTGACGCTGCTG; value = 7430 a.u.
Sequence = CGCCATTATAGTGTAAACGTGAGGTACGGATATCGAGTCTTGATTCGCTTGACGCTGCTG; value = 9000 a.u.
Sequence = AAATTACTAAGTTTTCACGTGGTCTACCCCGTATGAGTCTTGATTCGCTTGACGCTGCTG; value = 13700 a.u.
Sequence = CATACCCAACCTTGTCACTCAACTTAAGATATTTGTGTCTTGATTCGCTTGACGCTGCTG; value = 3510 a.u.
Sequence = CTTCTGTAAATTTGCATTGTGGGTGGACGCGCCCCGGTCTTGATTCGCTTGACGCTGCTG; value = 5100 a.u.
Sequence = TTAAAAATAGACTATTCGACAACTTTCCTACTGCTAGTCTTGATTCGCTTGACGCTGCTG; value = 2540 a.u.
Sequence = TGGGTAAGATTTCACCACGTGAGGAGCATAATATTGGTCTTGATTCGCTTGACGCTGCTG; value = 14600 a.u.
Sequence = CATACCCAACCTTGTCACATTACTTAAGATATTTGTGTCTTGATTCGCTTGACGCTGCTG; value = 4520 a.u.
Sequence = CGTCCTAGTGATTGTCTGGTGGGTGCCATGAGGAAGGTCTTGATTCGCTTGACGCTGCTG; value = 6150 a.u.

Set 2 — technique: RNA Bind-n-Seq; form: RNA; matrix: in vitro; tested at: 365 nM; relative to: no-protein control; direction: higher = stronger binding; endpoint: RBNS enrichment (R)
Target: RNA binding protein fox-1 homolog 2, RRM domain, GST-SBP tag (RBFOX2, Homo sapiens, UniProt O43251-10, residues 100-194)
Notes: natural RNA segment, single round, ends assumed
Target sequence (chain): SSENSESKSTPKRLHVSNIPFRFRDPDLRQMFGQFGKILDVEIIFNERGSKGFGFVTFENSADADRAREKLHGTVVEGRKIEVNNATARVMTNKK
Sequence = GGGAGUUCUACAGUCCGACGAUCCUAAAUUAGCAUCAAUACUUUGACAUUCAUUACAUUGGUUUGGGGGAAGAAAAGUAGUUCUGGUAUGUUUCAUUGAUCCCCAGAUACCUUCCAAUCUGGACAUGAUGGGGUGGAAUUCUCGGGUGCCAA; value = 1.4
Sequence = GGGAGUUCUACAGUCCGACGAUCCUUUAGCUAUUUAGGGACCAAAGGACCAAACUUUUUAUUGCAGAUGUGUAGCUCUAUGUCAAAUAGAGGGGGAAUGGAGGACCCCCUCCUUCCUGCCUCAUGGCUGUUCUUGGAAUUCUCGGGUGCCAA; value = 0.455
Sequence = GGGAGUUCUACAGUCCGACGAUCGGUUAAAGUGGAUGAGGUUGGAAAGAGUUGCCAUAAUGAGGUCCCACGUGGCUUCUUCGAUAGGAGCCACAACUUGGGGUGGGAAGAACUUGUCCCUCAGGCUUGUUGCCUGGAAUUCUCGGGUGCCAA; value = 1.35
Sequence = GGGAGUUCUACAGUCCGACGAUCGUCACUGACUCUGUUCACACAACUGUAUGUCUUACUGAAGGUCCCUGAAAGAUGUUUGAGGCUUGGGAUUCCAAACUUGGUUUAUUAAACAUAUAGUCACCAUCUUCCUAUGGAAUUCUCGGGUGCCAA; value = 0.487
Sequence = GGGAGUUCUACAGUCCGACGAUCGGUUGGAAAUUAUACGUUUAUACUUUUAUUAGUUUGCUCCAAGUAUGACUGUGUUCACUUAAGUUUAGAGAAACACUGGGUUUUGCUAAACUCGGUUAACAAAAGCCACUUGGAAUUCUCGGGUGCCAA; value = 1.82
Sequence = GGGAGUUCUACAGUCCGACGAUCCUUCAGUCCCUCAGGCUGGCAGCCGCUGCAGGUACCUGCCUGGGGGGGCCUGGCAGCCAUGGAGAAGGCUGAGAGGCAGAAGGACACGGGGUCUUCCUGCCUCACCACCUUGGAAUUCUCGGGUGCCAA; value = 0.58
Sequence = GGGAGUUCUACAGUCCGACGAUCUGUUCUGGUUACCUGGUUAUAAUAGAGUAUUAAAGCAGUUAUCUUCUGUAUUAUCAGAUCACAAAGGUGGAAUGUUACUAUUUUAUCAGCAAGAUAUUAAAAUGUAUUUCUGGAAUUCUCGGGUGCCAA; value = 0.385
Sequence = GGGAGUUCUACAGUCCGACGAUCAUUUCCAUUGGAGAUCACUGUCCAGCCAUCUAAAGCCCUGUUAUUCGAGUCAAGCUUAUCCCCAUUUUUGAGAGAGAAGGGGUACCUUCACAGACCGAUGCCCUUCUUACUGGAAUUCUCGGGUGCCAA; value = 0.245

Set 3 — technique: protein binding microarray; form: double-stranded DNA, one strand shown; matrix: in vitro; tested at: not given; relative to: not given; direction: higher = stronger binding; endpoint: E-score
Target: Histone acetyltransferase KAT6A, winged helix 2, GST fusion (KAT6A, Homo sapiens, UniProt Q92794, residues 85-181)
Notes: 8-mer, flanks averaged, mean of 2 arrays, mostly near background
Residues (chain): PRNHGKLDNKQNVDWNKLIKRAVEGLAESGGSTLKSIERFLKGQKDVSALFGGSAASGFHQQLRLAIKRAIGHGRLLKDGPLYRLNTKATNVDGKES
Sequence = TTAGTAAA; value = 0.15
Sequence = ATGCCGTG; value = 0.0819
Sequence = CGTGAACC; value = -0.00026
Sequence = ATCTTTAA; value = 0.122
Sequence = CAAGTTGC; value = -0.0763
Sequence = ACTTGAGC; value = -0.166
Sequence = CCCGCACG; value = 0.0857
Sequence = AGTGACTG; value = -0.138
Sequence = GCCGTGTA; value = -0.13
Sequence = ACACTCAC; value = 0.0984
Sequence = GCAGGCCC; value = 0.0177
Sequence = AGAATGTC; value = -0.252
Sequence = GATTGGCA; value = -0.00865
Sequence = AGCCAAGG; value = 0.0186
Sequence = GGCCCACA; value = 0.13
Sequence = GACAGTAC; value = -0.108
Sequence = AAAGAACA; value = 0.0585
Sequence = GGCTACCC; value = -0.129
Sequence = ATTTCAAC; value = -0.0781
Sequence = AGGCATAG; value = -0.058
Sequence = ACGACACG; value = -0.0253
Sequence = AATCCGGC; value = 0.117
Sequence = CTTGTCTA; value = -0.112
Sequence = AGACCCCG; value = 0.108
Sequence = CGAGAGAA; value = 0.16

Set 4 — technique: RNAcompete; form: RNA; matrix: in vitro; tested at: 20 nM; notes: 7-mer, probes averaged, single round; relative to: mean of 7-mers; direction: higher = stronger binding; endpoint: 7-mer Z-score
Target: PABPC1L2, full length, GST fusion (mouse, UniProt A0ABA7IW68)
Residues (chain): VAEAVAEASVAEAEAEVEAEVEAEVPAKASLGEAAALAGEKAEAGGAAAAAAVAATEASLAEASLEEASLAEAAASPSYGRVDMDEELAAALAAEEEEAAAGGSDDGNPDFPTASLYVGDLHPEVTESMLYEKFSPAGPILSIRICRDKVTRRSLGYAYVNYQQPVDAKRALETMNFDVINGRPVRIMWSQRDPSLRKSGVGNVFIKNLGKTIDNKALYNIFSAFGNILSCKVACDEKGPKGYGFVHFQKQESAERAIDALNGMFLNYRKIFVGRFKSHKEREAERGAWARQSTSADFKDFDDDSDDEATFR
Sequence = ACUUUAC; value = -0.148
Sequence = UAGAGGC; value = 0.198
Sequence = GCAAAAC; value = 1.41
Sequence = UAGGGGU; value = -0.0174
Sequence = CUCUCAU; value = -0.367
Sequence = GCCGAUA; value = -0.24
Sequence = CGUGCGA; value = -0.171
Sequence = CUCUUGG; value = -0.34
Sequence = CUAUAAC; value = -0.146
Sequence = UUGGGCA; value = -0.0246
Sequence = AUUUGGU; value = -0.184
Sequence = CAAGAGU; value = -0.104
Sequence = CUGACCA; value = -0.188
Sequence = UAAUCAC; value = -0.238
Sequence = AUUGUCU; value = -0.284
Sequence = UGUAAAG; value = 0.465
Sequence = CGAUACA; value = 0.173
Sequence = GUGUGCU; value = -0.101
Sequence = AACAAAA; value = 6.46

A few entries again (set 4):
Sequence = GUGUGCU; value = -0.101
Sequence = CUCUCAU; value = -0.367
Sequence = GCAAAAC; value = 1.41
Sequence = ACUUUAC; value = -0.148
Sequence = AUUUGGU; value = -0.184
Sequence = AACAAAA; value = 6.46
Sequence = UAGGGGU; value = -0.0174
Sequence = UUGGGCA; value = -0.0246
